Assay results collected from several papers.
Each line is one published result; not all experiments were run side by side. Numbers after ± are the reported error.

Structure (SMILES)	assay	system	setting	tissue uptake
CCCC[C@H](NC(=O)CNC(=O)CNC(=O)CN1CCN(CC(=O)O)CCN(CC(=O)O)CCN(CC(=O)O)CC1)C(=O)N[C@H]1CC(=O)NCCCC[C@@H](C(N)=O)NC(=O)[C@H](Cc2c[nH]c3ccccc23)NC(=O)[C@H](CCCNC(=N)N)NC(=O)[C@@H](Cc2ccccc2)NC(=O)[C@H](Cc2c[nH]cn2)NC1=O [gallium-67 labelled]		female C57 mice, B16/F1 melanoma, spleen	intravenous, 0.037 MBq, 2 h	0.44 ± 0.09 %ID/g
CC(C)[C@H](NC(=O)[C@@H]1CCCN1C(=O)[C@H](CCCNC(=N)N)NC(=O)[C@H](CS)NC(=O)[C@H](Cc1c[nH]c2ccccc12)NC(=O)[C@H](CCCNC(=N)N)NC(=O)[C@@H](Cc1ccccc1)NC(=O)[C@H](Cc1c[nH]cn1)NC(=O)[C@H](CCC(=O)O)NC(=O)[C@H](CS)NC(=O)[C@H](CS)NC(=O)CNC(=O)[C@@H]1CC(=O)N[C@@H](CCCNC(=N)N)C(=O)NCC(=O)N[C@@H](CC(=O)O)C(=O)N[C@H](Cc2ccc(O)cc2)C(=O)N1)C(N)=O [technetium-99m labelled]		C57 mouse, female, B16/F1 melanoma, stomach	intravenous, 0.037 MBq, 24 h	0.67 ± 0.11 %ID/g
CCCC[C@H](NC(=O)CNC(=O)CNC(=O)CN1CCN(CC(=O)O)CCN(CC(=O)O)CC1)C(=O)N[C@H]1CC(=O)NCCCC[C@@H](C(N)=O)NC(=O)[C@H](Cc2c[nH]c3ccccc23)NC(=O)[C@H](CCCNC(=N)N)NC(=O)[C@@H](Cc2ccccc2)NC(=O)[C@H](Cc2c[nH]cn2)NC1=O [copper-64 labelled]		female C57 mouse, B16/F1 melanoma, liver	intravenous, 0.037 MBq, 0.5 h	1.1 ± 0.18 %ID/g
NC12CNCCNCC(NCc3ccc(CNC(=O)CCCC(=O)NCc4ccc(-c5nncnn5)cc4)cc3)(CNCCNC1)CNCCNC2.[64Cu+2]		athymic nude mice SW1222 xenograft, liver	4 h post injection, 24 h accumulation interval, together with: huA33-TCO pretargeting	1.45 ± 0.21 %ID/g
OCc1cn(Cc2ccc(-c3noc(-c4ccc(OCC[18F])c(C(F)(F)F)c4)n3)cc2)nn1		female Lewis rat, thymus	intravenous, 120 min	0.78 ± 0.05 %ID/g
CCCC[C@H](NC(=O)CNC(=O)CNC(=O)CN1CCN(CC(=O)O)CCN(CC(=O)O)CCN(CC(=O)O)CC1)C(=O)N[C@H]1CC(=O)NCCCC[C@@H](C(N)=O)NC(=O)[C@H](Cc2c[nH]c3ccccc23)NC(=O)[C@H](CCCNC(=N)N)NC(=O)[C@@H](Cc2ccccc2)NC(=O)[C@H](Cc2c[nH]cn2)NC1=O [copper-64 labelled]		female C57 mouse, B16/F1 melanoma, muscle	intravenous, 0.037 MBq, 2 h	0.42 ± 0.24 %ID/g
O=C([O-])CN1CCN(CC(=O)[O-])CCN(CC(=O)NCCc2ccc3c(c2)C2C=CCC2C(c2cc4c(cc2Br)OCO4)N3)CCN(CC(=O)[O-])CC1.[111In+3] (stereo not drawn)		mouse, Hec50 endometrial tumour, kidneys	4 h post injection	1.74 ± 0.46 %ID/g
O=C(O)C1CN(Cc2ccc(-c3noc(-c4ccc(OCC[18F])c(C(F)(F)F)c4)n3)cc2)C1		male Sprague-Dawley rat, pancreas	intravenous, 120 min	0.265 ± 0.128 %ID/g
O=C([O-])CN1CCN(CC(=O)[O-])CCN(CC(=O)[O-])CCN(CC(=O)[O-])CC1.[64Cu+2]		healthy athymic nude mice, skin	intravenous, 4 h	0.34 %ID/g
C[C@H](CN(C)Cc1ccccc1)NC(=O)c1ccc(-c2noc(C(F)(F)[18F])n2)cc1	PET imaging	female Sprague-Dawley rats, heart	intravenous, 1 min	3.71 ± 2.29 SUV
O=C([O-])c1cccc(CN(CCN(Cc2cn(Cc3ccccc3)nn2)Cc2cccc(C(=O)[O-])n2)Cc2cn(Cc3ccccc3)nn2)n1.[64Cu+2]		nude athymic mice, healthy, femur	intravenous, 24 h, 64Cu label	1.88 %ID/g
CCCC[C@@H]1NC(=O)[C@@H](NC(=O)[C@H](CCC(=O)O)NC(=O)CNC(=O)CN2CCN(CC(=O)O)CCN(CC(=O)O)CCN(CC(=O)O)CC2)CCCCNC(=O)C[C@@H](C(N)=O)NC(=O)[C@H](C(C)C)NC(=O)[C@@H]2CCCN2C(=O)[C@H](CCCNC(=N)N)NC(=O)CNC(=O)[C@H](Cc2c[nH]c3ccccc23)NC(=O)[C@H](CCCNC(=N)N)NC(=O)[C@@H](Cc2ccccc2)NC(=O)[C@H](Cc2c[nH]cn2)NC(=O)[C@H](CCC(=O)O)NC1=O [gallium-67 labelled]		C57 mice, B16/F10 lung metastases, pancreas	intravenous, 0.037 MBq/mouse, 4 h	0.18 ± 0.09 %ID/g
CC(C)[C@H](NC(=O)[C@@H]1CCCN1C(=O)[C@H](CCCNC(=N)N)NC(=O)[C@H](CS)NC(=O)[C@H](Cc1c[nH]c2ccccc12)NC(=O)[C@H](CCCNC(=N)N)NC(=O)[C@@H](Cc1ccccc1)NC(=O)[C@H](Cc1c[nH]cn1)NC(=O)[C@H](CCC(=O)O)NC(=O)[C@H](CS)NC(=O)[C@H](CS)NC(=O)[C@@H]1CC(=O)N[C@@H](CCCNC(=N)N)C(=O)NCC(=O)N[C@@H](CC(=O)O)C(=O)N[C@H](Cc2ccc(O)cc2)C(=O)N1)C(N)=O [technetium-99m labelled]		C57 mouse, female, B16/F1 melanoma, spleen	intravenous, 0.037 MBq, 2 h	1.06 ± 0.39 %ID/g
CN(C)c1ccc(-c2nc3ccc(OCCCCCN4CCN5CCN(CC4)CC(=O)[O][Al]([18F])[O]C(=O)C5)cc3s2)cc1		ICR mouse, lung	intravenous, 2 min	15.6 ± 3.18 %ID/g
CCCC[C@H](NC(=O)CNC(=O)CNC(=O)CN1CCN(CC(=O)O)CCN(CC(=O)O)CCN(CC(=O)O)CC1)C(=O)N[C@H]1CC(=O)NCCCC[C@@H](C(N)=O)NC(=O)[C@H](Cc2c[nH]c3ccccc23)NC(=O)[C@H](CCCNC(=N)N)NC(=O)[C@@H](Cc2ccccc2)NC(=O)[C@H](Cc2c[nH]cn2)NC1=O [lead-203 labelled]		C57 mouse, muscle	intravenous, 0.056 MBq, 24 h	0.06 ± 0.05 %ID/g
